Experimental data gathered from unrelated publications.
A part holds a random share of what one study measured.

Study 1
Target: Sal-like protein 4, full length isoform A (SALL4, Homo sapiens, UniProt Q9UJQ4, residues 1-1053)
UniProt Q9UJQ4, sequence (whole entry, looked up): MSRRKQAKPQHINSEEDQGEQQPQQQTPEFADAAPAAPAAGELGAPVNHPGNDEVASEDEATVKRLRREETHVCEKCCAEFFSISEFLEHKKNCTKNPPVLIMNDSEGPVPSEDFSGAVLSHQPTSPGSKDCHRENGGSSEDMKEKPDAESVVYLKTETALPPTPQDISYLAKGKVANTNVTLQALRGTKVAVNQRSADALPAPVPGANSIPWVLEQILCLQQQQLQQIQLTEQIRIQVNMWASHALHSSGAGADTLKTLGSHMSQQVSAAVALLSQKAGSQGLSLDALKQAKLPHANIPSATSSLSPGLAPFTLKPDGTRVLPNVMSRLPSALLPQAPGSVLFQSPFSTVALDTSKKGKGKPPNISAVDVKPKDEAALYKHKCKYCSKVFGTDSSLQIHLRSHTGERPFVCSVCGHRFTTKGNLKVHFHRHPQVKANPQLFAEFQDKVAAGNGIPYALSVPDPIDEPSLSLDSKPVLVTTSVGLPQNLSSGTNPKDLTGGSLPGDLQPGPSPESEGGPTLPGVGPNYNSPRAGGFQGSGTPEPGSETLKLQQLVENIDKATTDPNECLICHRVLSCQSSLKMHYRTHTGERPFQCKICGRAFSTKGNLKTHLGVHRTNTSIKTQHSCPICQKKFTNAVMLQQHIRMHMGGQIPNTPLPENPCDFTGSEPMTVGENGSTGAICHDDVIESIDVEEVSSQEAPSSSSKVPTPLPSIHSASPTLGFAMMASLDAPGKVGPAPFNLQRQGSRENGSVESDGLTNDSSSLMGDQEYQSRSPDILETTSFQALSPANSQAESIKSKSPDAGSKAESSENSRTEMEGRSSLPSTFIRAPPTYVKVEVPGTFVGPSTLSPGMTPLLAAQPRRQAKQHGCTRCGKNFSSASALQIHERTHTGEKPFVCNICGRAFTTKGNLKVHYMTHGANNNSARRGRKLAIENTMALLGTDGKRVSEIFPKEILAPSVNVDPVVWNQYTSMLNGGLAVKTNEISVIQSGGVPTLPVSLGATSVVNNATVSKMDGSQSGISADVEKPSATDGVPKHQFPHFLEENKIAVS
Method: universal PBM
Molecule type: double-stranded DNA, one strand shown
Matrix: in vitro
Tested at: 600 nM
Notes: 8-mer, flanks averaged, mean of replicates
Reading: higher = stronger binding
For `ACCTCAGC`, the E-score was -0.11.
The E-score of `ATAACGCC` is reported as 0.0615.
The E-score of `GGCAAACC` is reported as -0.205.
For `CCTACTGC`, the E-score was -0.149.
With `ATGTAAAT` the E-score was 0.249.
With `AATTTTTC` the E-score was 0.336.
For `CGTTGCCC`, the E-score was -0.346.
The E-score of `AGCGAAGC` is reported as -0.243.
For `AGCGTCCC`, the E-score was -0.164.
With `CTGGTAGA` the E-score was -0.0344.
The E-score of `AGAAAACG` is reported as -0.0444.
`GTTTCGTA` gave an E-score of 0.142.
`CTTTCTTA` has an E-score of 0.0955.
The E-score of `ATCGTGGG` is reported as -0.0473.
For `CACCCTCA`, the E-score was -0.148.
`AAACGTCT` gave an E-score of 0.106.
The E-score of `ATGTGCAA` is reported as 0.147.
For `AGAAGCTC`, the E-score was -0.0958.
The E-score of `AGTAAATG` is reported as 0.152.
`GGCTAACA` has an E-score of -0.218.
`CCTAATGC` has an E-score of -0.0551.
With `AATTCACG` the E-score was 0.117.
`CAAGGTGA` has an E-score of -0.185.
`AGAAGGAA` has an E-score of 0.0539.
For `ACGGGCCC`, the E-score was -0.437.

Study 2
Target: Phosphate system positive regulatory protein PHO4, full length, GST-tagged (PHO4, Saccharomyces cerevisiae, UniProt P07270, residues 1-312)
Method: competition protein-binding microarray
Molecule type: double-stranded DNA, one strand shown
Matrix: in vitro
Tested at: 2 µM
Notes: whole 60-bp probe, lowest competitor level
With: Cbf1 competitor, 0.05 µM
Reading: higher = stronger binding
Residues (chain): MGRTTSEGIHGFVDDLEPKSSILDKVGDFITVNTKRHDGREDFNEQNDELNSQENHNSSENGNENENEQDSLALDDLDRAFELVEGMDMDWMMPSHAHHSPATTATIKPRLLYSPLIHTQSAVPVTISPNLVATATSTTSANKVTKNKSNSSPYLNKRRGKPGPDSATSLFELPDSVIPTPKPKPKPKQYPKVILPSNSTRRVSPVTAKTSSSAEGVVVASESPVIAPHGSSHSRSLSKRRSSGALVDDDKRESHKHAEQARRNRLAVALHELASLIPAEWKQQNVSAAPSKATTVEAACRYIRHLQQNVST
`CTAACGAAGGTTTGACCTGTGGGTGACAAGCCAAGTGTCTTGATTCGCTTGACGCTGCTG` has a fluorescence intensity of 4340 a.u.
The fluorescence intensity of `AAAGCGGTAATTTGTTACGTGGGTGCAGATATCTATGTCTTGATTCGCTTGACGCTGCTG` is reported as 6140 a.u.
`GAGCCTGTCGCCTCTTACATGACAAAAATGTTGGAAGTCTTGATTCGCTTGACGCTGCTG` has a fluorescence intensity of 3660 a.u.
`CTGTTGGATATGCTTGTCGTGATGGAATACTGTTCTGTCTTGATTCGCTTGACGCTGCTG` has a fluorescence intensity of 5320 a.u.
`CATACCCAACCTTGACACGTGTTTTAAGATATTTGTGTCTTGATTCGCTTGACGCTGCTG` has a fluorescence intensity of 19700 a.u.
For `CCCTCCCAGTTCTCGCGCGTGTGGAGAGTGGGTTCTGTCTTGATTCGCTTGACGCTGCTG`, the fluorescence intensity was 6890 a.u.
With `CGTCCTAGTGATTGGCCCGTGGGTGCCATGAGGAAGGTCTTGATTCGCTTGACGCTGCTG` the fluorescence intensity was 11400 a.u.
`CCTATTTTTCTTTTTTACGTGCTAAGGACGAAAAGTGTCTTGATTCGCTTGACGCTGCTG` has a fluorescence intensity of 5960 a.u.
`CCAAATTGGCTGAAGAGCGTGGCCGGACGAACATTCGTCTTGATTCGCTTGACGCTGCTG` has a fluorescence intensity of 6540 a.u.
With `GTTTCAAAAACCGGCCACGTACCCAAAGGTCGCCCGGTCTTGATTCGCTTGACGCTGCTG` the fluorescence intensity was 6430 a.u.
`CAGTGGGAATCTGTTCATGTGGCTGTATCACAACCAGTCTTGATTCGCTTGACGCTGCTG` gave a fluorescence intensity of 6450 a.u.
The fluorescence intensity of `AAATTACTAAGTTGAGATGTGGGTGACGCCGTATGAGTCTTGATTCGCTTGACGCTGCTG` is reported as 5000 a.u.
With `ATGATGACAGGATAGCATGTGCTTTTCGACGGCTGAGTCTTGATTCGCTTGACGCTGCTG` the fluorescence intensity was 10600 a.u.
The fluorescence intensity of `ACTGCCAGGAACTGGCACGTTAGCCCTATTACGATCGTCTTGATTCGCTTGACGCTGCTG` is reported as 7980 a.u.
The fluorescence intensity of `TTCAAGAAAAATCCACGCGTGTGGACCTTTTTTTTCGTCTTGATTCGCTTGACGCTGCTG` is reported as 7940 a.u.
The fluorescence intensity of `TGCGCAACAACTTGTCTTGTGGGTGTATGTCTAGAAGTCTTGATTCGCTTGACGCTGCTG` is reported as 4510 a.u.
`AACTGCGACCGACACAGCGTGCGATACTAGGGAAGTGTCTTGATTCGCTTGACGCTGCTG` has a fluorescence intensity of 8080 a.u.
With `ACAGACCCCGAAGGAGCCGTGATGGACTTTACACCAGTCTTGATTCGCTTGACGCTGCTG` the fluorescence intensity was 3580 a.u.
`ACCTCAAGTGATGGGTACGTGGGTAGTCAGGCTTCCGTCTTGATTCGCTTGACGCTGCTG` has a fluorescence intensity of 7540 a.u.
For `TTGCTTTATCGAAAATCCGTGATGGCGGTCCTTCAGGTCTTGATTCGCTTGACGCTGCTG`, the fluorescence intensity was 3350 a.u.
`TTTCTAATTGGCCATCACGTTCAATAGTGGCTCTGAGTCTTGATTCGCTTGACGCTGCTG` has a fluorescence intensity of 8490 a.u.
`TAATACTATCTCCAACACGTGAATTAGCAAGCCAAAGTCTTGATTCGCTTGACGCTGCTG` has a fluorescence intensity of 14900 a.u.
`CTTCTGTAAATTTTTCACGTGTAATGACGCGCCCCGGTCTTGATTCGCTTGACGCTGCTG` has a fluorescence intensity of 12400 a.u.
`CATGTCTTGCACTGTCACACGATTGTAATTCAATTGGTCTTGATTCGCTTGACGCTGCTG` gave a fluorescence intensity of 7720 a.u.
`GCTGAGTACTTTGGGGTCGTGATGGAGCTGTGCTACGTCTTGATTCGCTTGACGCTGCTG` has a fluorescence intensity of 7270 a.u.

Study 3
Target: Interferon regulatory factor 7, full length, phosphomimetic (IRF7, Homo sapiens, UniProt Q92985, residues 1-503, S471D/S472D/S475D/S476D/S477D/S483D/S484D/S487D)
Method: protein-binding microarray
Molecule type: double-stranded DNA, one strand shown
Matrix: in vitro
Tested at: 2200 nM top
Notes: 60-bp whole probe
With: salmon DNA 0.4 mg/ml
Baseline: random background probes
Reading: higher = stronger binding
All sequences stand within: GCCTAGCAC … GTCTTGATTCGCTTGACGCTGCTG
Target sequence (chain): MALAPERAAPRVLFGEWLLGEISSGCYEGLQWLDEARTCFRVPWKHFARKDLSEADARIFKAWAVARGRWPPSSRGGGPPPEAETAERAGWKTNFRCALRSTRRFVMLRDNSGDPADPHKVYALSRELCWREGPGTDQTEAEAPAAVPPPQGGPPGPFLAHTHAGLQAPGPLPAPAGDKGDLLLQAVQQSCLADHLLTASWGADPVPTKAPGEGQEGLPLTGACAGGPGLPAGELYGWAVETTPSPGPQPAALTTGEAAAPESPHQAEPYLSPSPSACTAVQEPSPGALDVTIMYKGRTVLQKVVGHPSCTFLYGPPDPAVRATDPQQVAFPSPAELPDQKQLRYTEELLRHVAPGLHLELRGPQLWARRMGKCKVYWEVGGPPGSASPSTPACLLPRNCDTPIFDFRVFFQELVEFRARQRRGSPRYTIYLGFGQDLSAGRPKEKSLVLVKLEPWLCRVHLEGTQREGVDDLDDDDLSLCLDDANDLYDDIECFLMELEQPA
`GACAGTCTCGGTATCGGGACGTGCTAG`: “fitted relative affinity” 0.563 z-score.
`TTAGGACTGCAACTGCTTTAGTGCTAG` — result for “fitted relative affinity”: -0.201 z-score.
Under “fitted relative affinity”, `TTAGATATCGGGTATCGAGTAGTGCTA` is recorded as 0.0181 z-score.
Under “fitted relative affinity”, `CTCTTGATCCCGAACTGGCCGTGCTAG` is recorded as 0.355 z-score.
For `TTAGGTTCCCTTTACCTTTAGTGCTAG`, “fitted relative affinity” read 2.15 z-score.
`TTAGGTTTCCTACTGCTTTCGTGCTAG`: “fitted relative affinity” 2.22 z-score.
Under “fitted relative affinity”, `GACGAACTGAATTTCGAGACGTGCTAG` is recorded as 0.968 z-score.
For `TTAGGACTGGACAATGGGTTAGTGCTA`, “fitted relative affinity” read -0.586 z-score.
`GACGGATTCGGTCTCGGGACGTGCTAG`: “fitted relative affinity” 1.2 z-score.
`CACGATATCGGGTTTCGAGACGTGCTA`: “fitted relative affinity” 1.87 z-score.
`GACAGTTTCGGTTTCGGGACGTGCTAG`: “fitted relative affinity” 17.3 z-score.
For `TGGAGTCTCTGTTCTTTTCAGTGCTAG`, “fitted relative affinity” read 1.25 z-score.
For `TTAGATTTCGGTCTCGATTAGTGCTAG`, “fitted relative affinity” read 3.23 z-score.
For `TCAACTTTCTTTACTTCACTGTGCTAG`, “fitted relative affinity” read 1.99 z-score.
`GACGGACTGGGGTTGCGGGACGTGCTA`: “fitted relative affinity” -0.657 z-score.
For `GACGATATAGGGTATCGAGACGTGCTA`, “fitted relative affinity” read -0.199 z-score.
For `GACGGACTGGGTTTTCGGGACGTGCTA`, “fitted relative affinity” read 0.733 z-score.
`CCATTTTGTGTTTTCATTTTGTGCTAG`: “fitted relative affinity” 5.72 z-score.
Under “fitted relative affinity”, `CGGAATTTCCCTCTGCTCCTGTGCTAG` is recorded as 1.55 z-score.
Under “fitted relative affinity”, `GACGGACTGAGTTTCGAGACGTGCTAG` is recorded as 1.88 z-score.
`ATAATTTTTCTAGTGGTTGCGTGCTAG` — result for “fitted relative affinity”: 1.21 z-score.
`GACGGTTTCGGGTTTGGGGACGTGCTA` — result for “fitted relative affinity”: 8.71 z-score.

Study 4
Target: Prothrombin, mature alpha-thrombin (F2, Homo sapiens, UniProt P00734)
Method: aptamer microarray, sandwich
Molecule type: DNA with 2'F-ANA
Matrix: in vitro
Tested at: 200 nM
Notes: whole 15-mer aptamer, many near background
With: Cy3 exosite-II aptamer, 400 nM
Reading: higher = stronger binding
Oligonucleotide: GGTTGGTGTGGTTGG
`2'F-ANA at 1 2 3 5 6 7 11 14`: “mean fluorescence intensity” 51.5 a.u.
For `2'F-ANA at 1 3 4 6 8 9 10 12 13 15`, “mean fluorescence intensity” read 68.3 a.u.
`2'F-ANA at 1 2 3 4 5 9 10 12 14` — result for “mean fluorescence intensity”: 42.1 a.u.
For `2'F-ANA at 3 4 5 10 11 12`, “mean fluorescence intensity” read 67.6 a.u.
`2'F-ANA at 4 5 6 7 8 9 12 13 14 15` — result for “mean fluorescence intensity”: 48.1 a.u.
For `2'F-ANA at 2 5 10 11 12 15`, “mean fluorescence intensity” read 50.8 a.u.
Under “mean fluorescence intensity”, `2'F-ANA at 1 4 6 7 8 9 14` is recorded as 52.7 a.u.
For `2'F-ANA at 1 3 5 6 7 8 10 11 12 13`, “mean fluorescence intensity” read 140 a.u.
`2'F-ANA at 1 5 8 10 11 12 15` — result for “mean fluorescence intensity”: 45.5 a.u.
For `2'F-ANA at 7 9 11 15`, “mean fluorescence intensity” read 456 a.u.
`2'F-ANA at 1 3 5 7 9 10 11 12 13 15`: “mean fluorescence intensity” 50.3 a.u.
`2'F-ANA at 7 8 9 10 11 13 14`: “mean fluorescence intensity” 107 a.u.
`2'F-ANA at 1 3 4 5 8 12 13` — result for “mean fluorescence intensity”: 132 a.u.
Under “mean fluorescence intensity”, `2'F-ANA at 2 3 4 6 8 10 13 14 15` is recorded as 131 a.u.
Under “mean fluorescence intensity”, `2'F-ANA at 1 2 6 7 10 14 15` is recorded as 48.6 a.u.
`2'F-ANA at 1 2 6 9 10 11 12 13 14 15`: “mean fluorescence intensity” 60.2 a.u.
For `2'F-ANA at 1 5 7 8 10 11`, “mean fluorescence intensity” read 47.1 a.u.
Under “mean fluorescence intensity”, `2'F-ANA at 3 9 10 11 12 13` is recorded as 572 a.u.
For `2'F-ANA at 1 2 3 6 7 8 9 10 11 12 13`, “mean fluorescence intensity” read 80.9 a.u.
Under “mean fluorescence intensity”, `2'F-ANA at 2 3 6 7 8 9 11 12 15` is recorded as 858 a.u.

Some of these lines once more (study 4):
`2'F-ANA at 1 2 3 5 6 7 11 14`: “mean fluorescence intensity” 51.5 a.u.
For `2'F-ANA at 1 3 4 6 8 9 10 12 13 15`, “mean fluorescence intensity” read 68.3 a.u.
`2'F-ANA at 1 3 5 7 9 10 11 12 13 15`: “mean fluorescence intensity” 50.3 a.u.
For `2'F-ANA at 2 5 10 11 12 15`, “mean fluorescence intensity” read 50.8 a.u.
Under “mean fluorescence intensity”, `2'F-ANA at 2 3 4 6 8 10 13 14 15` is recorded as 131 a.u.
